Results gathered from unrelated publications.
Numbers after ± are the reported error. In brackets after ≈: the same amount, converted by molar mass.
Organism: Mycobacterium tuberculosis

Structure (SMILES) | assay | test system | conditions | how to read | endpoint | result
Cc1nc(=O)c2cc(CN(C)c3ccc(C(=O)Nc4n[nH]c5ccccc45)s3)ccc2[nH]1 | – | pptH knockout | – | – | MIC50 | 63.2 µM
Cc1cc(S(=O)(=O)N(C)CC(=O)Nc2ccn(C)c(=O)c2)c2[nH]ncc2c1 | – | wild type | concentration not given, 4 days, pH 5.5 | – | survival | no effect
Cc1ccc(C2OC(c3ccc(C)cc3)C(C)C(=NOCc3cn(-c4ccccc4)nn3)C2C)cc1 (centres unmarked) | resazurin | H37Rv | 6500 µg/mL | – | inhibition | 76%
C#CCN(Cc1ccc2nc(N)nc(N)c2c1)c1ccc(C(=O)N[C@@H](CCC(=O)O)C(=O)O)cc1 | – | pptT knockdown without ATc | – | – | MIC90 | 3.2 µM (≈ 1.52 µg/mL)
CC1C(=NOCc2cc(-c3ccc(Cl)cc3)no2)C(C)C(c2ccc(Br)cc2)OC1c1ccc(Br)cc1 (centres unmarked) | resazurin | H37Rv | 6500 µg/mL | – | inhibition | 92%
CN[C@@H]1[C@H](O)[C@H](NC)[C@H]2O[C@]3(O)[C@H](O[C@@H]2[C@H]1O)O[C@H](C)C[C@H]3NC(=O)Cc1ccc(F)cn1 | – | MDR and XDR isolates | – | – | MIC50 | 1.6 µg/mL
Cc1ccn2c(-c3csc(Nc4ccccn4)n3)c(C)nc2c1 | microbial growth | – | 5 days | – | MIC50 | 1.7 µM
COC(=O)c1cnc(NC(=O)c2ccccc2O)s1 | – | H37Rv | concentration not given, 120 h | – | antibacterial activity | inactive
Cc1cc(=O)oc2cc(OCCCCn3cc(COc4ccc(N5C(N)=NC(N)=NC56CCCCC6)cc4)nn3)ccc12 | microbial growth | ATCC27294 H37RV | – | – | MIC50 | 1.6 µM
CCOC(=O)c1cnc(N/N=C/c2c(-c3ccc(C)cc3)nc3ncccn23)s1 | MABA | H37Rv ATCC 27294 | – | – | MIC | 3.12 µg/mL (≈ 7.68 µM)
Cc1cc(C2CC2)[nH]c(=O)c1CNC(=O)c1ccc(C(F)(F)F)nc1 | microbial growth, resazurin | H37RV | 20 µg/mL | – | inhibition | 5%
FC(F)(F)c1ccccc1Nc1nc(-c2cccnc2)cs1 | bacterial growth, Alamar blue | H37Rv | 10 µg/mL | – | inhibition | 0%
Nc1c2c(nc3sc4c(c13)CCCCC4)CCCC2 | microbial growth | – | 5 days | – | MIC50 | 1.7 µM
Cc1[nH]c(=O)c(CNC(=O)c2cnc(C(F)(F)F)nc2)c2c1CCCC2 | microbial growth, resazurin | H37RV | 20 µg/mL | – | inhibition | 12.3%
CC1C(=NNC(=O)c2ccncc2)C(C)C(c2ccc(Cl)cc2)OC1c1ccc(Cl)cc1 (centres unmarked) | resazurin | H37Rv | 6500 µg/mL | – | inhibition | 90%
CN(C)c1ccc(-c2nc3ccccc3n2CCCOc2ccccc2)cc1 | microbial growth | – | 5 days | – | MIC50 | 27 µM
O=S(=O)(c1ccccc1)N(CCc1nnc(S)o1)c1ccccc1 | BACTEC radiometric | H37Rv | 12.5 µg/mL | – | inhibition | 30%
Cc1nc(=O)c2cc(CN(C)c3cccc(C(=O)Nc4n[nH]c5ccccc45)c3)ccc2[nH]1 | – | pptT knockdown with ATc | – | – | MIC50 | 50.8 µM

Structure (SMILES) | assay | test system | conditions | how to read | endpoint | result
Cc1[nH]c(=O)c(CNC(=O)c2ccc(N(C)C)cc2)c2c1CCCC2 | microbial growth, resazurin | H37RV | 25 µg/mL | – | inhibition | 26.9%
Cc1nc(=O)c2cc(CN(C)c3cccc(C(=O)N[C@@]4(C(=O)O)CCC[C@H](C(=O)O)C4)c3)ccc2[nH]1 | – | pptT knockdown without ATc | – | – | MIC90 | 29 µM (≈ 14.3 µg/mL)
Cc1cc(Oc2nc(N3CC[C@@H](c4ccncc4)C3)ncc2F)[nH]n1 | time-lapse microscopy | Erdman tdTomato | 0.6 µM, up to 144 h | – | lysed cells | ~50%
CN[C@@H]1[C@H](O)[C@H](NC)[C@H]2O[C@]3(O)[C@H](O[C@@H]2[C@H]1O)O[C@H](C)C[C@H]3NC(=O)Cc1ccc(Cl)cn1 | – | MDR and XDR isolates | – | – | MIC50 | 0.8 µg/mL
COc1nc2ccc(Br)cc2cc1[C@@H](c1ccccc1)[C@@](O)(CCN(C)C)c1cccc2ccccc12 | ATP level, BacTiter-Glo luminescence | H37Rv | 2 days, hypoxic shift-down | – | IC50 | 1 µM
O=S(=O)(c1ccccc1)N(CCc1nnc(S)o1)c1ccc(Cl)cc1 | BACTEC radiometric | H37Rv | 12.5 µg/mL | – | inhibition | 54%
O=C(Cc1cccs1)N[C@@H]1C(=O)N2C(C(=O)O)=C(CSc3cccc[n+]3[O-])CS[C@H]12 | – | H37Rv | replicating, with: clavulanate 25 µM | – | MBC | 1.6 µM
Cc1ccc(N(CCc2nnc(S)o2)S(=O)(=O)c2ccc(C)cc2)cc1 | BACTEC radiometric | H37Rv | 12.5 µg/mL | – | inhibition | 36%
O=C1c2ccccc2C(=O)N1c1ccccc1Br | bacterial growth | H37Rv | – | – | IC50 | 75 µM
O=C(NCCNCCO)c1cn(Cc2ccccc2)c2cc(Cl)c(OCc3cccc(C(F)(F)F)c3)cc2c1=O | – | – | – | – | MIC90 | 8 to 125 µM (≈ 4.59 to 71.7 µg/mL)
Cc1[nH]c(=O)c(CNC(=O)c2ccc(C(F)(F)F)nc2)c2c1CCCC2 | microbial growth, resazurin | H37RV | 20 µg/mL | – | inhibition | 100%
O=C1c2ccccc2C(=O)N1c1nnc(-c2ccccc2Cl)s1 | bacterial growth | H37Rv | – | – | IC50 | 91 µM
COc1ccc(NC(=O)CN(C)S(=O)(=O)c2cc(C)cc3cn[nH]c23)cc1Cl | – | intrabacterial | 10 µM, 24 h | baseline: untreated | pyruvate level | 10.6 ± 0.16 fold
COC(=O)[C@H](CCCNC(=O)OC(C)(C)C)NC(=O)c1ccc(NCc2ccc3nc(N)nc(N)c3c2Cl)cc1 | – | pptT knockdown without ATc | – | – | MIC90 | < 0.1 µM
Cc1[nH]c(=O)c(CNC(=O)c2ccccc2C(F)(F)F)c2c1CCCC2 | microbial growth, resazurin | H37RV | 25 µg/mL | – | inhibition | 33.3%
C#CCN(Cc1ccc2nc(N)nc(N)c2c1)c1ccc(C(=O)N[C@@H](CCC(=O)OCC)C(=O)OCC)cc1 | microbial growth | H37RV | – | – | MIC90 | 0.03 µM (≈ 0.016 µg/mL)
CCOC(=O)/C=C1/SC(N/N=C/c2c(-c3ccc(F)cc3)nc3ncccn23)=NC1=O | MABA | H37Rv ATCC 27294 | – | – | MIC | 12.5 µg/mL (≈ 28.5 µM)

Some of these lines once more:
Structure (SMILES) | assay | test system | conditions | how to read | endpoint | result
O=C1c2ccccc2C(=O)N1c1ccccc1Br | bacterial growth | H37Rv | – | – | IC50 | 75 µM
O=C(NCCNCCO)c1cn(Cc2ccccc2)c2cc(Cl)c(OCc3cccc(C(F)(F)F)c3)cc2c1=O | – | – | – | – | MIC90 | 8 to 125 µM (≈ 4.59 to 71.7 µg/mL)
